Measured values of several laboratories.
Lines come from different studies, so protocols differ. Values joined by “and” are separate records of one study, mostly repeats; a detail may differ. ± gives the spread as reported.

SMILES | cell line | assay | test system | setting | scale | endpoint | value
CC(=O)O[C@H]1C(=O)[C@@]2(C)[C@H]([C@H](OC(=O)c3ccccc3)[C@]3(O)C[C@H](OC(=O)[C@H](O)[C@@H](NC(=O)c4ccccc4)c4ccccc4)C(C)=C1C3(C)C)[C@]1(OC(C)=O)CO[C@@H]1C[C@@H]2O | COS-7 and PC-3/TxR |  |  |  | baseline: IC50 COS-7 over PC-3/TxR | selectivity index | 0.1
O=C(/C=C/C=C/C=C/C1CCCCC1)NC1=C[C@@](O)(/C=C/C=C/C=C/C(=O)NC2=C(O)CCC2=O)[C@@H]2O[C@@H]2C1=O | A101D | cell growth, CellTiter-Glo |  | 78 h |  | GI50 | 10.6 µM
Cc1[nH]c2ccccc2c1CCNCc1ccc(/C=C/C(=O)NO)cc1 | A2780/CP | annexin V/PI flow cytometry |  | concentration not given, 48 h | baseline: untreated | late apoptotic cells | 0.2%
Nc1cccc2c1C(=O)N(C1CCC(=O)NC1=O)C2=O (stereo not drawn) | bone marrow CD138+ myeloma cells | XTT |  | 1.2 µM, mean of three patients |  | viability | 77%
CC/C(=N\NC(=O)C(C)Nc1ccccc1)c1ccc(O)c(C)c1O (stereo not drawn) | SK-OV-3 | Western blot, measured: phospho-YAP |  | 10 µM, 6 h, 3D gellan gum culture, unit not given | baseline: total YAP | protein level | 0.32 ± 0.19
Cn1cc(-c2ccc(-c3cncc(Cl)c3N3CCC4(CCNC4=O)CC3)cc2)cn1 | COLO 205 | gene expression, microarray, measured: LGALS1 mRNA |  | concentration not given, 6 h | baseline: untreated cells | log2 fold change | 4.24
Cc1cc(Nc2ncc(Cl)c(Nc3ccccc3S(=O)(=O)C(C)C)n2)c(OC(C)C)cc1C1CCNCC1 | CLB-GE | phosphoproteomics LC-MS/MS, measured: RBM4 phosphorylation |  | 200 nM, 60 min | baseline: untreated | log2 fold change | -2.41
CC(=O)c1nn(-c2ccc(Cl)cc2)/c(=N/N=C(\C)c2ccc(NC(=O)c3ccc(Cl)cc3)cc2)s1 | HepG2 |  |  | 10 µM |  | toxicity | 92.6%
COC(=O)Nc1nc2ccc(C(=O)c3cccs3)cc2[nH]1 | tsFT210 G2-synchronised | flow cytometry |  | 100 nM, 4 h after release at 32 °C |  | S-phase cells | 2.2%
CCn1cc(-c2cc(Cn3ccnc3)cc3c2CCN([C@H](c2cc(OC)ccn2)C2CC2)C3=O)c(C(F)(F)F)n1 | SK-HEP1 | cell growth, inhibitor |  | 120 h |  | EC50 | 22.2 µM
Cc1cccc(-c2[nH]c(CNc3ccccc3F)nc2-c2ccc3ncnn3c2)n1 | MM1.S pomalidomide-resistant | XTT |  | 2 µM | baseline: untreated | viability | 41%
COc1c(C)c(OC(=O)c2ccccc2)c(C)c(O)c1C(=O)/C=C/c1ccccc1 | FaDu | SRB |  |  | baseline: normal over FaDu IC50 | selectivity index | > 1.32
Cc1cc(C)n(C(=S)[S][Au][PH](CCCCCC[PH]([Au][S]C(=S)n2nc(C)cc2C)(c2ccccc2)c2ccccc2)(c2ccccc2)c2ccccc2)n1 | MDA-MB-231/ATCC | cell growth, NCI-60 screen |  | breast cancer |  | log TGI | > -4 log10 M
Nc1ccn([C@H]2CC[C@@H](CO)O2)c(=O)n1 | HepG2 | qPCR |  | 20.0 µM, 10 days, 1 | baseline: untreated | mitochondrial DNA content | 0.7 ± 0.2%
CCn1cc(-c2cc(Cn3ccoc3=N)cc3c2CCN([C@@H](C)c2cc(OC)ccn2)C3=O)c(C(F)(F)F)n1 | SNU1066 | cell growth |  | 120 h |  | EC50 | 3.23 µM
C#C[C@@]1(O)[C@@H](CO)O[C@@H](n2ccc3c(N)ncnc32)[C@@H]1O | NCI60 panel | cell growth |  | mean over panel |  | TGI | -5.1 log M
N=C(CCl)NCCC[C@H](NC(=O)c1ccccc1)C(N)=O | MRL/lpr mouse bone marrow neutrophils |  |  | concentration not given, 4 h, 8-week-old donors, together with: PMA |  | NET formation | inhibited
[Cl-].[Cl-].[Os+2].c1cnc2c(c1)ccc1cccnc12.c1cnc2c(c1)ccc1cccnc12.c1cnc2c(c1)ccc1cccnc12 | SK-MEL-28 | cell growth, SRB |  | red light 633 nm, normoxia |  | TGI | 32.9 µM
O=c1[nH]nc(OCCCc2ccc(Cl)cc2)c(NCc2cccnc2)c1Br | HEK293T | RNA-seq, measured: ATF3 mRNA |  | 10 µM, 6 h | baseline: vehicle | log2 fold change | 1.69
COc1c(C)c(OCc2ccccc2)c(C)c(O)c1C(=O)/C=C/c1ccccc1 | FaDu | SRB |  |  | baseline: normal over FaDu IC50 | selectivity index | 1.62
C[C@@H]1CN(C(=O)c2ccc(NC(=O)c3cc(O[C@H](C)c4c(Cl)ccc(F)c4Cl)c(N)nn3)cc2)C[C@H](C)N1 | Ba/F3 EML4-ALK v1 | cell viability |  |  |  | Emax | 99.3%
C=Cc1c2[n-]c(c1C)/C=c1\[n-]/c(c(C)c1C=C)=C\c1[n-]c(c(CCC(=O)O)c1C)/C=c1\[n-]c(c(C)c1CCC(=O)O)=C2.[Sn+4] | SH-SY5Y | RNA-seq, measured: TFPI2 mRNA |  | 5 µM, 5 h | baseline: untreated cells | fold change | 2.59
O=C(Nc1nnc2n3c(=S)[nH][nH]c3nc(-c3ccc(Cl)cc3)c1-2)c1ccccc1 | MDA-MB-231/ATCC | NCI60 SRB |  | 10 µM |  | growth percent | 67.9%
Cn1cc(-n2cnc3c(NCc4nc5cc(Cl)c(Cl)cc5[nH]4)nc(N4CCOCC4)nc32)cn1 | MDA-MB-468 | cell viability, CellCounting-Lite |  | 666.7 nM, 37 °C | higher = more viable cells | luminescence signal | 48700 a.u. and 43000 a.u. and 41900 a.u.

SMILES | cell line | assay | test system | setting | scale | endpoint | value
Cc1n[nH]c2nc(-c3ccc(Cl)cc3)c3c(NC(=O)c4ccccc4)nnc-3n12 | Malme-3M | SRB |  | 10 µM, NCI60 single-dose screen | baseline: untreated | cell growth | 96%
Cl | human neutrophils | sulfate exchange, substrate, sulfate influx |  | external binding site |  | Km | 25.1 mM
N#Cc1ccc(C[C@H](NC(=O)c2cc3ccc(F)cc3[nH]2)C(=O)N2CCc3ccccc32)cc1 | human neutrophils | calcium mobilization, agonist |  |  |  | EC50 | > 50 µM
O=C(Nc1nnc2[nH]c(=S)[nH]c(-c3ccc(Cl)cc3)c1-2)c1ccccc1 | MDA-MB-231/ATCC | NCI60 SRB |  | 10 µM |  | growth percent | 91.3%
CCCCN1C[C@H](O)[C@@H](O)[C@@H](O)[C@H]1CO | sample E patient fibroblasts | Gb3 level lowering, LC-MS/MS, measured: Gb3 d18:1/18:0 |  | 216 h |  | IC50 | 41 µM
CC1(C)CC2C1CC[C@]1(C)CCC3C(C(=O)O)CC(=O)O[C@@]32C1 (stereo partly drawn) | MYBPC3 mutant iPSC-derived cardiomyocytes |  |  | 20 µM, 24 h, primary screen | baseline: plate controls | MyBP-C/MYH ratio | 140%
CCOC(=O)c1cccc(NC(=O)c2scc(C)c2S(=O)(=O)N(C)c2ccc(OCC)cc2)c1 | CCF-STTG1 | ABCA1 promoter |  | concentration not given |  | reporter gene activity | inhibited
COc1ccc(NC(=O)c2c(Nc3ccccc3)sc(C(=O)NN=Cc3ccc(OC)c(O)c3)c2NC(C)=O)cc1 | HepG2 | annexin V-FITC/PI |  | concentration not given |  | viable cells | 84.6 ± 6.23%
Cc1ccc(Cn2cc(COc3cccc(Cc4cnc(NC(=O)CSc5nc(C)cc(C)n5)s4)c3)nn2)cc1 | PC-3M-luc | cell viability, MTS |  | 10 µM |  | inhibition | 27 ± 0.2%
CN(C)C(=O)c1cc2cnc(Nc3ccc(N4CCNCC4)cn3)nc2n1C1CCCC1 | human neutrophils | flow cytometry |  | 1 to 10 µM, together with: fMLF |  | CD11b surface level | decreased
C=CCn1c(=O)c2cnc(Nc3ccc(N4CCN(C)CC4)cc3)nc2n1-c1ccc2c(n1)[C@@](O)(CC)CC2 | MDA-MB-231 | flow cytometry |  | concentration not given |  | S phase cells | 17.9%
Cc1nn(-c2nc3ccc(Cl)c(Cl)c3[nH]2)c(O)c1C1OC(=O)c2ccccc21 (stereo not drawn) | RAW-ISG | IFN luciferase reporter |  | 2.5 µM, together with: HT-DNA |  | inhibition | 53.6% and 56.7% and 54.6% and 55.6% and 55.2%
C=CC1=C(C)c2cc3[n-]c(cc4nc(cc5[n-]c(cc1n2)c(C)c5C=C)C(C)=C4CCC(=O)O)c(CCC(=O)O)c3C.[Zn+2] | SH-SY5Y | RNA-seq, measured: MALL mRNA |  | 5 µM, 5 h | baseline: untreated cells | fold change | 44.3
COc1cnc2cccc(N3CCc4c(cc(Cn5ccnc5C)cc4-c4cn(C)nc4C(F)(F)F)C3=O)c2c1 | NCI-H1792 | cell growth, inhibitor |  | 120 h |  | EC50 | 0.121 µM
Cn1cc(Nc2nccc(-c3ccc4c(c3)CN(C3COC3)CC[C@H]4NC(=O)c3cn(C(C)(C)C)nn3)n2)cn1 | human B cells |  |  | 100 nM, 64 h, stimulation-downregulated genes, together with: CD40L, anti-IgM, IL-21 |  | number of downregulated genes | 5
CC(C)(C)c1cc(O)ccc1O | HepG2 | high content imaging, measured: DNA structure |  | 24 h, distribution mode 2 |  | point of departure | 138 µM
Cc1cc(NC(=O)c2cccc(NC(=O)/C=C/CN(C)C)c2)ccc1Nc1nccc(-c2cccnc2)n1 | HEK293 AP1 reporter cells | AP-1 reporter gene, inhibitor |  | 1 µM, 6 h, unit not given, together with: PMA | baseline: PMA alone | reporter activity | 0.951
CC/C(=N\NC(=O)NCc1cccc(O)c1)c1ccc(O)c(C)c1O | SK-OV-3 | microarray, measured: JUNB | 3D culture in gellan gum | 10 µM, 24 h | baseline: DMSO | log ratio of mRNA level | -2.77
C[C@H]1Oc2cc(cnc2N)-c2c(nn(C)c2C#N)CN(C)C(=O)c2ccc(F)cc21 | Ba/F3 EML4-ALK variant 1 S1206Y | cell viability |  |  |  | Emax | 100%
c1ccc2[nH]ccc2c1 | HCT-8 | RNA-seq, measured: CYP1A1 |  | concentration not given |  | mRNA level, LS mean | 12.4 counts per million
CC(C)(C)C(=O)Oc1ccc(S(=O)(=O)Nc2ccccc2C(=O)NCC(=O)O)cc1 | human peripheral blood neutrophils | NET formation |  | 500 µM, together with: MPO-ANCA immune complex, C5a |  | citrullinated histone H3 per neutrophil | 10.2 and 7.79 and 6.34 and 7.48
CCCN1CCN(c2ccc3[nH]c(-c4ccc5[nH]c(-c6ccc(OCC)c(OCC)c6)nc5c4)nc3c2)CC1 | Malme-3M | SRB |  | 10 µM, 48 h |  | growth percent | -82.4%
COC1=CC(=O)C=C(OC)C1=O | MCF-10A | CellTiter-Glo |  | concentration not given | baseline: normalised luminescence | viability | 80.2%
Cc1nc(NC(=O)N2CCC[C@H]2C(N)=O)sc1-c1ccnc(C(C)(C)C(F)(F)F)c1 | MDA-MB-453 | resazurin growth rate inhibition |  | 72 h |  | GR50 | 101 nM
